Measurements collected from several papers.
Lines come from different studies, so protocols differ. ± marks the error that the study gave.
Cell line: HepG2

CCNC1=C(Cl)C(=O)c2cc3c(cc2C1=O)CCCC3(C)C
CC50 (cytotoxicity, Alamar Blue; 72 h): > 200 µM

COc1cc(-c2ccc3oc(-c4ccsc4)c(C#CC4(O)CCCCC4)c3c2)cc(OC)c1OC
CC50: > 100 µM

O=C1Nc2ccc(Cl)cc2C1=Cc1ccc(-c2cccc(C(=O)NCC3CCNCC3)c2)o1 (mixture of isomers)
CC50 (cell viability, MTT; 24 h): 24.5 µM

COc1cc(OC(C)=O)c2cc3c(cc2c1OC(C)=O)CCCC3(C)C
CC50 (cytotoxicity, Alamar Blue; 72 h): 54.6 ± 5.3 µM

CN(C(=O)c1ccn2ncc(-c3ccc(C(F)(F)F)cc3)c2c1)c1ccc(C#N)cn1
CC50 (96 h): > 50 µM

COC(=O)C1C(C=NNCC(F)(F)F)=Cc2cc3c(cc2C1c1cc(OC)c(OC)c(OC)c1)OCO3 (centres unmarked)
CC50 (cell growth or viability, resazurin; 48 h): > 100 µM

CCOC(=O)c1cn(-c2nc(C)n[nH]2)nn1
CC50 (cell growth or viability, MTT; 72 h): ≥ 500 µM

OC[C@H]1O[C@@H](n2cnc3c(O)ncnc32)[C@H](F)[C@@H]1O
CC50 (sulforhodamine B; 11 days, galactose medium): > 250 µM

COc1ccc(NC(=O)N2CCCN3CCC(c4ccc(C#Cc5ccccc5)cc4)C3C2)cc1 (centres unmarked)
CC50 (cell growth or viability, ATP luminescence; 72 h): 8.48 µM

CNC(=O)c1ccc(-c2cnn3ccc(C(=O)N(c4ccc(C#N)cn4)C(C)(C)C)cc23)cc1
CC50 (96 h): 40 ± 17.3 µM

CC(C)=CCCC1=CCC2C(=O)c3ccccc3C(=O)C2C1 (centres unmarked)
CC50 (cytotoxicity, Alamar Blue; 72 h): 82.9 ± 5.3 µM

COc1ccc(C(CC(=O)c2cccc(Oc3ccccc3)c2)C(N)=O)cc1 (centres unmarked)
CC50: > 300 µg/mL

COC(=O)C1C(c2nc3ncccc3[nH]2)=Cc2cc3c(cc2C1c1cc(OC)c(OC)c(OC)c1)OCO3 (centres unmarked)
CC50 (cell growth or viability, resazurin; 48 h): 95 µM

COC(=O)c1[nH]c(C(=O)OC)c2c1c1c3cc(Cl)ccc3[nH]c1c1[nH]c3ccc(Cl)cc3c12
CC50 (cell growth or viability, ATP luminescence; 72 h): 4.6 µM

Cc1c(-c2ccc(Cc3ccc(OC(F)(F)F)cc3)cc2)[nH]c2cccc(F)c2c1=O
CC50 (cell growth or viability, CCK-8; 24 h): > 10 µM

CC(C)CCCc1ccc2c(c1)C(=O)C(Br)=C(Br)C2=O
CC50 (cytotoxicity, Alamar Blue; 72 h): 14.7 ± 0.8 µM

Nc1ncnc2c1ncn2[C@@H]1O[C@H](CO)[C@@H](O)[C@H]1F
CC50 (sulforhodamine B; 11 days, galactose medium): 108 µM

CN(C(=O)c1ccn2ncc(-c3ccc(C(N)=O)cc3)c2c1)c1ccc(C#N)cn1
CC50 (96 h): 15.6 ± 8.62 µM

C=CCOC(=O)C1C(C=O)=Cc2cc3c(cc2C1c1cc(OC)c(OC)c(OC)c1)OCO3 (centres unmarked)
CC50 (cell growth or viability, resazurin; 48 h): > 100 µM

Cc1ccc(NC(=O)N2CCCN3CCC(c4ccc(C#CC5CCCC5O)cc4)C3C2)cc1 (centres unmarked)
CC50 (cell growth or viability, ATP luminescence; 72 h): 1.91 µM

CNC(=O)c1ccc(-c2cnn3ccc(C(=O)N(C)c4ccc(C#N)cn4)cc23)cc1
CC50 (96 h): 21.2 ± 10.6 µM

NC[C@H]1O[C@H](O[C@H]2[C@H](OCCCCCCCCCCCCn3cc(CNc4nc(NCc5cn(CCCCCCCCCCCCO[C@@H]6[C@@H](O)[C@H](N)C[C@H](N)[C@H]6O[C@H]6O[C@H](CN)[C@@H](O)C[C@H]6N)nn5)nc(NCc5cn(CCCCCCCCCCCCO[C@@H]6[C@@H](O)[C@H](N)C[C@H](N)[C@H]6O[C@H]6O[C@H](CN)[C@@H](O)C[C@H]6N)nn5)n4)nn3)[C@@H](O)[C@H](N)C[C@@H]2N)[C@H](N)C[C@@H]1O
CC50 (cell growth or viability, resazurin; 48 h): 44.8 µM

COC(=O)c1[nH]c(C(=O)OC)c2c1-c1c[nH]c3ccc(Cl)c(c13)[C@@]21C=Nc2ccc(Cl)cc21
CC50 (cell growth or viability, ATP luminescence; 72 h): > 10 µM

Cc1ccc(NC(=O)N2CCCN3CCC(c4ccc(C#Cc5cccnc5)cc4)C3C2)cc1 (centres unmarked)
CC50 (cell growth or viability, ATP luminescence; 72 h): 6.88 µM

COc1ccc(-c2ccc3oc(-c4ccc(OC)cc4)c(C#CC4(O)CCCCC4)c3c2)cc1
CC50: > 100 µM

COc1ccccc1C(CC(=O)c1cccc(Oc2ccccc2)c1)C(N)=O (centres unmarked)
CC50: > 300 µg/mL

CC(=O)Oc1cc(C)c(OC(C)=O)c2c1CC=C(CCC=C(C)C)C2
CC50 (cytotoxicity, Alamar Blue; 72 h): > 200 µM

COC(=O)c1[nH]c(C(=O)OC)c2c1-c1c[nH]c3ccc(Cl)c(c13)C21CN(C)c2ccc(Cl)cc21 (racemic)
CC50 (cell growth or viability, ATP luminescence; 72 h): > 10 µM

O=c1ccn([C@@H]2O[C@H](CO)[C@@H](O)[C@H]2F)c(=O)[nH]1
CC50 (sulforhodamine B; 11 days, galactose medium): > 250 µM

CC(C)=CCCC1=CCC2=C(C1)C(=O)c1ccccc1C2=O
CC50 (cytotoxicity, Alamar Blue; 72 h): 57.8 ± 1.7 µM

COc1cc(C2c3cc4c(cc3C(C(C)C)C3COC(=O)C23)OCO4)cc(OC)c1OC (centres unmarked)
CC50 (cell growth or viability, resazurin; 48 h): > 100 µM

Nc1ccn([C@@H]2O[C@H](CO)[C@@H](O)[C@H]2F)c(=O)n1
CC50 (sulforhodamine B; 11 days, galactose medium): > 250 µM
